Measurements gathered from unrelated publications.
Protocols differ between the studies behind these lines. Numbers after ± are the reported error.

N#CC1(c2ccc3c(N)ncnn23)OC(COP(=O)(O)OP(=O)(O)OP(=O)(O)O)C(O)C1O (stereo not shown) — AUC(0-t) (LC-MS/MS; CD-1 mouse, kidney; oral, 100 mg/kg of remdesivir): 8710 nmol·h/kg
O=C1Cc2cc(CCN3CCN(C4=NS(=O)(=O)c5ccccc54)CC3)c(Cl)cc2N1 — percent metabolized (human liver cytosol; 1 µM, 30 min, 1 mg/mL protein): 39.2%
CC(C)[C@H](NC(=O)CNC(=O)[C@H](CCC(N)=O)NC(=O)[C@H](C)N)C(=O)O — subjects with mild AE (healthy male volunteers; intravenous, 15 mg/kg/h, 2 h, added: LPS 2 ng/kg): 25%
CC(C)C[C@H](NC(=O)[C@H](CCCCN)NC(=O)[C@H](CCC(=O)O)NC(=O)[C@H](C)NC(=O)[C@@H](NC(=O)[C@H](CCCCN)NC(=O)[C@H](CC(=O)O)NC(=O)[C@H](Cc1ccc(O)cc1)NC(=O)[C@H](Cc1ccccc1)NC(=O)[C@H](C)NC(=O)[C@H](CCCCN)NC(=O)[C@H](CC(C)C)NC(=O)[C@H](Cc1c[nH]c2ccccc12)NC(=O)[C@@H](N)CC(=O)O)C(C)C)C(=O)N[C@@H](CCCCN)C(=O)N[C@@H](CCC(=O)O)C(=O)N[C@@H](C)C(=O)N[C@@H](Cc1ccccc1)C(=O)N1CCC[C@H]1C(=O)N[C@@H](CC(=O)O)C(=O)N[C@@H](Cc1c[nH]c2ccccc12)C(=O)N[C@@H](C)C(=O)N[C@@H](CCCCN)C(=O)N[C@@H](C)C(=O)N[C@@H](C)C(=O)N[C@@H](Cc1ccc(O)cc1)C(=O)N[C@@H](CC(=O)O)C(=O)N[C@@H](CCCCN)C(=O)N[C@@H](C)C(=O)N[C@@H](C)C(=O)N[C@@H](CCC(=O)O)C(=O)N[C@@H](CCCCN)C(=O)N[C@@H](C)C(=O)N[C@@H](CCCCN)C(=O)N[C@@H](CCC(=O)O)C(=O)N[C@@H](C)C(=O)N[C@@H](C)C(=O)O — clearance (cynomolgus monkey female, plasma; intravenous infusion, 75 mg/kg, day 1, 30 min infusion): 0.117 mL/min/kg
O=P([O-])([O-])Oc1ccc(-c2cc(=S)ss2)cc1.[Na+].[Na+] — parent drug release (refers to: astaxanthin; saline; 12 h, 37 °C): not detected
CCCCCCCCCCCCC(=O)O.O=C1CCCC2C3CCCN4CCCC(CN12)C34 (stereo not shown) — entropic term −TΔS of micellization (electrical conductivity; water; 308.15 K, critical micelle concentration): -7.89 kcal/mol
Cn1c2cc([S+](C)[O-])sc2c2cnn(Cc3cccc(N)c3)c(=O)c21 (stereo not shown) — toxicity (nu/nu mouse, H1299 xenograft; 50 mg/kg twice daily, 7 weeks): not toxic
C(#Cc1cncc(OC[C@@H]2CCN2)c1)c1ccccc1 — efflux ratio (Caco-2; 100 µM, 2 h, pH 7.4): 1.11
CC[C@H](C)[C@H](NC(=O)[C@H](CCCNC(=N)N)NC(=O)[C@H](Cc1c[nH]c2ccccc12)NC(=O)[C@H](CCCNC(=N)N)NC(=O)[C@@H](NC(=O)[C@H](CC(C)C)NC(=O)[C@H](CC(C)C)NC(=O)[C@H](CCCNC(=N)N)NC(=O)[C@H](Cc1c[nH]c2ccccc12)NC(=O)[C@@H](N)CCCCN)[C@@H](C)CC)C(=O)N[C@@H](CCC(N)=O)C(=O)N[C@@H](CCCCN)C(N)=O — toxicity (mouse; dose not given): not toxic
CCCC(=O)OC1O[C@@H]2O[C@@]3(C)CC[C@H]4[C@H](C)CCC([C@H]1C)[C@@]24OO3 (stereo partly shown) — dead embryos (Tg(fli1:EGFP) zebrafish embryos; 50 µg/mL, up to 48 hpf): 5 count
CCCCCCC[C@@H](CC(=O)O)OC(=O)C[C@@H](CCCCCCC)O[C@@H]1O[C@@H](C)[C@H](O)[C@@H](O)[C@H]1O — mortality (zebrafish embryos; 640 µM, 6 to 120 hpf): 100%
CSCC[C@@H]1NC(=O)[C@@H]2CSSC[C@H](NC(=O)[C@H](CO)NC(=O)[C@H](C)N)C(=O)N[C@@H](CCCNC(=N)N)C(=O)N[C@@H]([C@@H](C)O)C(=O)N3CCC[C@H]3C(=O)N[C@@H](CCCCN)C(=O)N[C@@H](CC(=O)O)C(=O)N[C@H]3CSSC[C@H](NC(=O)[C@H](CCCCN)NC(=O)[C@H](CCCNC(=N)N)NC(=O)[C@H](CC(N)=O)NC1=O)C(=O)N[C@@H](CCCCN)C(=O)N[C@H]1CSSC[C@H](NC(=O)[C@@H]4CCCN4C(=O)[C@H](CC(=O)O)NC(=O)[C@H](C)NC3=O)C(=O)N[C@@H](C)C(=O)N[C@@H](CCCCN)C(=O)N[C@@H](CCC(=O)O)C(=O)N[C@@H]([C@@H](C)O)C(=O)NCC(=O)N[C@@H](CSSC[C@@H](C(N)=O)NC(=O)[C@H](CCCNC(=N)N)NC(=O)[C@H](CC(N)=O)NC1=O)C(=O)N1CCC[C@H]1C(=O)N[C@@H](Cc1ccc(O)cc1)C(=O)NCC(=O)N[C@@H](CCCCN)C(=O)N2 — Chloride (DA rat pristane-induced arthritis, serum; subcutaneous, 0.1 mg/kg single dose at onset, 21 days): 98.6 mmol/L
CCC(CC)OC1C=C(C(=O)OC(C)OC(=O)C(N)C(C)C)CC(NC(=N)N)C1NC(C)=O (mixture of isomers) — oral bioavailability (mouse (fed); oral, 10 mg/kg; baseline: 1 mg/kg intravenous): 23%
CN(C)C(CNC(=O)Nc1cc(C(F)(F)F)ccc1N1CCOCC1)c1ccncc1 (stereo not shown) — serum indirect bilirubin (mouse, serum; intraperitoneal, 360 mg/kg single dose): 0.4 mg/dL
COc1ccc2sc3c(c2c1)SCCNC3=O — oral bioavailability (mouse; oral, 25 mg/kg): 1.7%
COc1cc(NC(=O)C(=O)c2c(C)n(Cc3ccc(Cl)cc3)c3ccc(C)cc23)ccn1 — CL/F (cynomolgus monkey, plasma; oral, 10 mg/kg): 52.2 mL/min/kg
CC[C@H](C)C(=O)N1CCC(NC(=O)Nc2ccc(OC(F)(F)F)c(F)c2)CC1 — subjects with any TEAE (healthy volunteers; oral, 16 mg single dose, 14 (unit not given)): 66.7%
C/C=C/C=C/C/C=C/CCCCCCCc1cccc(O)c1O — tissue concentration (female Kunming mice, tumour-bearing, tumor; intravenous, 10 mg/kg, 8 h): 31500 ± 2570 ng/g
CC(C)C1=C(OC(=O)CCc2ccccc2)C(=O)C2=C(C=C[C@H]3C(C)(C)CCC[C@]23C)C1=O — mortality (Artemia salina, artificial seawater; 100 ppm, 24 h): 13.6%
CC(=CCC(O)C(C)=Cc1csc(C)n1)CC=CC(C)C(O)C(C)C(=O)C(C)(C)C(O)CC(=O)O (stereo not shown) — Cmax (human, plasma; intravenous infusion, 48 mg/m2 KOS-1584, 3 h infusion, cycle 1): 46.2 ± 1.84 ng/mL
C[C@H](O)[C@@H](NC(=O)[C@H]1CCCN1C(=O)[C@@H](CCCCN)NC(=O)[C@@H](CO)NC(=O)[C@@H](Cc1ccc(O)cc1)NC(=O)[C@@H](CC(N)=O)NC(=O)CCOCCOCCOCCNC(=O)CN1CCN(CC(=O)O)CCN(CC(=O)O)CCN(CC(=O)O)CC1)C(=O)N[C@H](CC(=O)O)C(=O)N[C@H](CCCNC(=N)N)C(=O)N[C@H](CCC(N)=O)C(=O)N[C@H](Cc1ccc(O)cc1)C(=O)N[C@H](Cc1c[nH]cn1)C(=O)N[C@H](Cc1ccccc1)C(N)=O [copper-64 labelled] — time to heart signal disappearance (dynamic PET; C57BL/6J mice; intravenous, dose not given): 4 to 6 min
CCN(Cc1ccccc1)C(=O)CCc1nc(CN2CCN(C(=O)Cc3ccc(OC)c(OC)c3)CC2)no1 — concentration (rat, plasma; intravenous, 1 mg/kg, 30 min): 122 ng/mL
CC(C)(CCCC/C=C/CCCCCC(C)(C)C(=O)O)C(=O)O — AUC(0-t) (rhesus monkey, male, hyperlipidaemic, plasma; oral, 20 mg/kg, first dose): 1780 ± 530 µg·h/mL
CC(CCC(=O)NCC(=O)O)C1CCC2C3CCC4CC(OC5OC(C(=O)O)C(O)C(O)C5O)CCC4(C)C3CC(O)C12C (stereo not shown) — plasma concentration (human, SLCO1B1 c.521 T/C, plasma; fasting, geometric mean, sex-adjusted): 106 ng/mL
[2H]C([2H])([2H])C([2H])([2H])C([2H])([2H])OC(C(=O)OC1CCNCC1)(c1ccccc1)c1ccccc1 — diarrhoea incidence (healthy Japanese male; oral, 8 to 18 mg once daily, 16 days): 14.3%
CCCCCCCCCCCCCCCC(=O)NCCCCCCNC(=O)C(CCCCNC(=O)CCN1C(=O)CC(SC[C@H](NC(=O)[C@H](CCCNC(=N)N)NC(=O)CNC(=O)[C@H](CCCCN)NC(=O)[C@@H](NC(=O)[C@H](CC(C)C)NC(=O)[C@H](Cc2c[nH]c3ccccc23)NC(=O)[C@H](C)NC(=O)[C@@H](NC(=O)[C@H](Cc2ccccc2)NC(=O)[C@H](CCC(=O)O)NC(=O)[C@H](CCCCN)NC(=O)[C@H](C)NC(=O)[C@H](C)NC(=O)[C@H](CCC(N)=O)NC(=O)CNC(=O)[C@H](CCC(=O)O)NC(=O)[C@H](CC(C)C)NC(=O)[C@H](Cc2ccc(O)cc2)NC(=O)[C@H](CO)NC(=O)[C@H](CO)NC(=O)[C@@H](NC(=O)[C@H](CC(=O)O)NC(=O)[C@H](CO)NC(=O)[C@@H](NC(=O)[C@H](Cc2ccccc2)NC(=O)[C@@H](NC(=O)CNC(=O)[C@H](CCC(=O)O)NC(=O)CNC(=O)[C@@H](N)Cc2c[nH]cn2)[C@@H](C)O)[C@@H](C)O)C(C)C)[C@@H](C)CC)C(C)C)C(N)=O)C1=O)NC(=O)CCN1C(=O)CC(SC[C@H](NC(=O)[C@H](CCCNC(=N)N)NC(=O)CNC(=O)[C@H](CCCCN)NC(=O)[C@@H](NC(=O)[C@H](CC(C)C)NC(=O)[C@H](Cc2c[nH]c3ccccc23)NC(=O)[C@H](C)NC(=O)[C@@H](NC(=O)[C@H](Cc2ccccc2)NC(=O)[C@H](CCC(=O)O)NC(=O)[C@H](CCCCN)NC(=O)[C@H](C)NC(=O)[C@H](C)NC(=O)[C@H](CCC(N)=O)NC(=O)CNC(=O)[C@H](CCC(=O)O)NC(=O)[C@H](CC(C)C)NC(=O)[C@H](Cc2ccc(O)cc2)NC(=O)[C@H](CO)NC(=O)[C@H](CO)NC(=O)[C@@H](NC(=O)[C@H](CC(=O)O)NC(=O)[C@H](CO)NC(=O)[C@@H](NC(=O)[C@H](Cc2ccccc2)NC(=O)[C@@H](NC(=O)CNC(=O)[C@H](CCC(=O)O)NC(=O)CNC(=O)[C@@H](N)Cc2c[nH]cn2)[C@@H](C)O)[C@@H](C)O)C(C)C)[C@@H](C)CC)C(C)C)C(N)=O)C1=O (stereo partly shown) — t1/2 (Kunming mouse, plasma; subcutaneous, 50 nmol/kg): 7 ± 0.7 h
CC(C)[C@H](NC(=O)CNC(=O)[C@H](CCC(N)=O)NC(=O)[C@H](C)N)C(=O)O — subjects with any adverse event (human; intravenous infusion, 15 mg/kg/h, 2 h infusion): 16.7%
CN[C@](C)(C[18F])C(=O)O — tissue uptake (SCID mouse U87 xenograft, kidney; 15 min, post injection): 18 ± 2.7 %ID/g

Some of these lines once more:
CC(C)(CCCC/C=C/CCCCCC(C)(C)C(=O)O)C(=O)O — AUC(0-t) (rhesus monkey, male, hyperlipidaemic, plasma; oral, 20 mg/kg, first dose): 1780 ± 530 µg·h/mL
CC[C@H](C)[C@H](NC(=O)[C@H](CCCNC(=N)N)NC(=O)[C@H](Cc1c[nH]c2ccccc12)NC(=O)[C@H](CCCNC(=N)N)NC(=O)[C@@H](NC(=O)[C@H](CC(C)C)NC(=O)[C@H](CC(C)C)NC(=O)[C@H](CCCNC(=N)N)NC(=O)[C@H](Cc1c[nH]c2ccccc12)NC(=O)[C@@H](N)CCCCN)[C@@H](C)CC)C(=O)N[C@@H](CCC(N)=O)C(=O)N[C@@H](CCCCN)C(N)=O — toxicity (mouse; dose not given): not toxic
